Experimental data gathered from unrelated publications.
Numbered parts are unrelated; each lists some results of a single study. Changes are numbered by the printed parent chain.

Set 1
Target: RNA binding protein fox-1 homolog 2, RRM domain, GST-SBP tag (RBFOX2, Homo sapiens, UniProt O43251-10, residues 100-194)
Technique: RNA Bind-n-Seq
Form: RNA
Sample: in vitro
Tested at: 365 nM
Setting: natural RNA segment, single round, ends assumed
Reference: no-protein control
Direction: higher = stronger binding
All sequences stand within: GGGAGUUCUACAGUCCGACGAUC … UGGAAUUCUCGGGUGCCAA
Residues (chain): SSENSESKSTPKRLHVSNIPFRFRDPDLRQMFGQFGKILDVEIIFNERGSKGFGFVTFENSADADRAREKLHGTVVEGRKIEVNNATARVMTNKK
Sequence	RBNS enrichment (R)
UGUUCCUAGAAAAGUAAUAACAUAUGCUUAUCUUUAUUCUUUUUCCAGGUGAUUUUGUUUUCAAAUGCUCCUUGUGAAAACACCUAGUGUUGUAGAAAGGAAAGUGGCCA	0.543
UUUCCUGGGACCAAAUAAUGAGCACCUGCUGGAGUCUGGGCAGAGCAGCCUGGCUCCCUUCUACCCCAGAGCUCCCAAAUGCCGGCCUUGCAUUUGGAGGGUUCAUGGCC	0.344
CACUAGAAUAAAUUUGCAAGGCCCUAAAAUAUCACUGUUAUUUUUGGAGUAAUUCAGUAUAGGUUCGUUUAAAAGAGAUUUUUAUAACUUCAGACAUGCAUCAGUAGGAA	3.2
UGUAAUAUAGUUUUGUGAAUUUAUUGCACUGAUGUUGUACCUUGUGGUAUAUCUGUCCCUAUUAAAUAAGUGUUGUUUUCUCCUCUUUAAUAUUGCUGUGAACAGUGGUG	0.447
CCCCCACCUUCCCCAACCCUUCCUCAAGAGCUGAAGGGAUCCCAGCCCCUAGGUGGGCAGAGGCAGACCCUCCCCAGAGCUCCUUAGGAAGAAGACAGACUGGUUCAUUG	0.558
UGCUUGGGCCUCCCUGGCACUGAACCUUAGGCUUUGUAUGACAGUGAAGCAGCACUGUGAGUGGUUCAAGCACACUGGAAUAUAAAACAGUCAUGGCCUGAGAUGCAGGU	0.86
CCUAGAGCUAGCAGUCCUCAUCCAGGCAACCGAGGGCAGUGGUUUUGUUUGUGUUCUUGGCUGUUCCUAAAGCUUGCCCUUUGAGUAUUAUCAGGAGAACCCAAGCUGUC	1.75
ACGCUGUGUGUAUGACUGUGUGACUGUGUGGGAGCCUGGACUGACAGAUAGGCCAAGGGCUACUCUCUGGCAUCUCCAGGUGUUUUGUAGCAAACAGCCACUUAGUGCUU	0.376
GUGCGUGCGGGCGUCAGUUUCCAGGAUAGCCGUGCUGCAGUCCAGUUAGGCUGUUCUCCUGAGCUGCAGGUGCCCAGGUCUGACUCUCCUUCUCUGCUUAUCCCCAGGCA	0.605
GCAGGUAAACUGUAUAGGUAUAGAGUCCUCCAGUGCUCUGAAGAGCCCUGCCUCUAUGCACGCCCCCGGCAAAGGGCUUGUCAGUAGGUCCCCCUCAACUCCAUACUCAA	0.671
GAACCAGACUGAAAGCUUCAGAGCAAUAAUGUGACUGAAAACUUAUUUAAAGUUAGCUUCUUUCCACUUCUGUGUGUGCUUGUGUGAUUUCAUUGUUUUAAUCAAGGGCU	0.62
UACUUUUUAAAAUCGUUCAUAGACUUCUGUAAAAUGCAAGAUAAAUUAAAGUUAUUAUAACAGUAAUUCUUUGAAGUCGAUCUGUCCUUCAGUUUUCUUUUCUACAAUAA	0.937

Set 2
Target: Interferon regulatory factor 3, full length, phosphomimetic (IRF3, Homo sapiens, UniProt Q14653, residues 1-427, S386D/S396D/S398D/S402D/T404D/S405D)
Technique: protein-binding microarray
Form: double-stranded DNA, one strand shown
Sample: in vitro
Tested at: 2540 nM top
Setting: 60-bp whole probe
Added: salmon DNA 0.4 mg/ml
Reference: random background probes
Direction: higher = stronger binding
All sequences stand within: GCCTAGCAC … GTCTTGATTCGCTTGACGCTGCTG
Construct (chain): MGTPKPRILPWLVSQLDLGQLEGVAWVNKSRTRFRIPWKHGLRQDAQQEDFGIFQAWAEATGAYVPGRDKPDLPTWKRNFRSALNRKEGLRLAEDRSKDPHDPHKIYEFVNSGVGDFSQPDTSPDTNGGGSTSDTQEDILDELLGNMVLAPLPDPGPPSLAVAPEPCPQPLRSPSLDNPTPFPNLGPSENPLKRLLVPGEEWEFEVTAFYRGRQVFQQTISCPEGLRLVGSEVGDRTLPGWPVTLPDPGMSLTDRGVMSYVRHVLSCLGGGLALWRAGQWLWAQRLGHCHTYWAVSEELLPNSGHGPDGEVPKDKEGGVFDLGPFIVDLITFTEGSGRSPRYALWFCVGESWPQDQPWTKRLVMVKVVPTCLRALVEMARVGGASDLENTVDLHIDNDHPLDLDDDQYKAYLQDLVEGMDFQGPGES
Sequence	fitted relative affinity [z-score]
TTAGATAACGGGTATCGATTAGTGCTA	-0.013
TCATTTTTTCTAATTGAACTGTGCTAG	1.46
TCAGCTTTCCTCGTGATACTGTGCTAG	1.25
TTAGGTTTCGGTATCGGTTCGTGCTAG	9.37
GACGGACTGGGGTATGGGGACGTGCTA	-0.831
GACGGTTTCCTTATCTTGACGTGCTAG	7.37
TATGTCTGGCCCAAGCAGCCGTGCTAG	-0.858
TTAGGACTGGGACTGGGCTAGTGCTAG	-1.07
CCATTTTGTGTTTTCATTTTGTGCTAG	2.88
AGAAATTTCTTTCTAATTCAGTGCTAG	1.96
TTAGGAGTGCTACTGCTTTAGTGCTAG	-0.92
GACGGACTAGACACTGGGGACGTGCTA	-0.557
GACGGTTTCGATTATCGGGACGTGCTA	5.71
GACGGTTTCGACACTTGGGACGTGCTA	2.88
GACAGTTCCGGTTTCGGGACGTGCTAG	6.5
CATGCTCTTATATACCTGTATGTGCTA	0.476
GAAGGTCTCCTTATCCTGACGTGCTAG	2.51

Set 3
Target: Histone acetyltransferase KAT6A, both winged helices, GST fusion (KAT6A, Homo sapiens, UniProt Q92794, residues 1-181)
Technique: protein binding microarray
Form: double-stranded DNA, one strand shown
Sample: in vitro
Tested at: not given
Setting: 8-mer, flanks averaged, mean of 2 arrays, mostly near background
Reference: not given
Direction: higher = stronger binding
Target sequence (chain): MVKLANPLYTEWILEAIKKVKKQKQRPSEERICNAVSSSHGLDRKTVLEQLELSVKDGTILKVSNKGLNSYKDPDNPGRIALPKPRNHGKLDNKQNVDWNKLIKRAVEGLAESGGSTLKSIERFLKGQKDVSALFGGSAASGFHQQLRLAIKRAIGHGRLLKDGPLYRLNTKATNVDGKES
Sequence	E-score
CGTTACCC	0.102
TACAGATA	-0.0816
CCAACCAG	-0.133
ACTAACTA	-0.127
CGACCCCA	-0.108
AACGGGTA	0.237
GAATCTAC	0.0263
GGTAACGA	0.035
CAGGCCTC	0.0435
ATATTAGA	-0.0296
TCTCCGAA	0.0496
TGACATAA	-0.0518
AGGCTGTC	-0.0862
ATAAAGTG	-0.162
AGTAACGA	-0.0878
TATGTGCA	-0.0143
TAGCAAAA	0.0269
AGGAATCA	0.0113
ATCATCCA	-0.247
AGTAACTC	-0.175
AGTAAGCG	0.122
AATCGGTG	-0.031
CGGGCAAA	0.176
CAAAATGC	-0.00406
GCGTTACA	0.121

Set 4
Target: RING finger protein unkempt homolog, zinc fingers 1-6, GST-SBP tag (UNK, Homo sapiens, UniProt Q9C0B0, residues 30-357)
Technique: RNA Bind-n-Seq
Form: RNA
Sample: in vitro
Tested at: not given
Setting: RNA with constant flanks, human and mouse sites, ends assumed
Reference: input RNA pool
Direction: higher = stronger binding
All sequences stand within: GGGAGUUCUACAGUCCGACGAUC … CAACAGAGGAUUGAGCAUCA
Target sequence (chain): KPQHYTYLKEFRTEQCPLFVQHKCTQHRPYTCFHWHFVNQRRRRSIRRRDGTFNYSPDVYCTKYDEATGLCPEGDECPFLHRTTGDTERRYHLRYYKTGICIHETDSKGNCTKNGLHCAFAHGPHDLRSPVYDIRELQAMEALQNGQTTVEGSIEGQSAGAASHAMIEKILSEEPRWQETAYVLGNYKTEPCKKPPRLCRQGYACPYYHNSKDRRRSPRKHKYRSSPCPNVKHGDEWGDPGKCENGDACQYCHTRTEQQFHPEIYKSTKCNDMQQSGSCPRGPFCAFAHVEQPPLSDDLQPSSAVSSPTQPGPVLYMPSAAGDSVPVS
Sequence	bound/input enrichment
AUAAACACAUUUAAAUUACUGUCAUAUGCUUCCUAUUGCAUUGAGCAUGGUGAUCUGGAGCUAGCAGCAAAGUUUGUCAAUCAGCUGAAGGGGGAAUCCAGACGAGUGGCACAGGACUGG	0.592 ratio
AUGUUGGGGUCUAGUAUCCAGACCUUUGCACCUUCCCAGGAUGUAAGCAGUGACAUCCAUCCUGAUGAAGCAGCAGAAAAGGAGCUGACUUCAGUUGUGGCAGAAAAUGGCACUGGCUUG	0.0299 ratio
GAAGCCAUCUGUGUGGUGCCUUAGACCAGAGAAGUUAAAGAUCUGCUCCUAACAUUGAGGCUUCCUUGAGCCUUUUUAAAGCUGCAGUCUCAUUUCAUUACCUCAUUUGAACCUGCCCCU	0.188 ratio
CAAACCAGAAAUACCUCAGAAUUUUCUACUUGUGUAUGUUUUAUUAAUUAUAUAUUUUGUUAGUUGUGUUGUCUUGUAGGAAGUAUAUUUUAAUGUAAGUUGACUUUUAUGACGAGGAAG	10.9 ratio
CUGAGGAGUUGAGGGUUAUUGACACUAGAGAAAUGAAUUCUCAUUUGAUCCUAAUUUUCCCCGUAUUCUACUUGAACACAUUAAAAAUACUCUGCUGCCUAUACAAUGUAAACCUAGGAG	0.416 ratio
CAAUCUAGAAAUUUUGAAUACCAUGAGGAAAGACAUUUCCAUGGGCACUAUGACCCUGAAUAUAGACAUGAUCAACAAAGACCCUUUACUUGGAGAAUGGAUGAUGAAAAACAUGGACAA	4.8 ratio
UGUCCAGGUUGCUACAAGAUUACUACAGUUUUCAGCCAUGCACAGACUGUGGUUCUUUGUGUGGGUUGUUCAACUGUGUUGUGCCAGCCCACAGGAGGAAAAGCCAGGCUCACAGAAGGC	0.104 ratio
GGGCAUUGAUCUUCGAUCGCGAAGAUGGCUGCUGGCUGCCUGCUGGCCUUGACUCUGACACUUUUCCAAUCUUUGCUCAUCGGCCCCUCGUCGGAGGAGCCGUUCCCUUCGGCCGUCACU	0.225 ratio
CUUUGAGGUAAGAAAAAUGCAACCUGGACUGAUGGAUGUGUGACCCCUUGUCACCAAUGGACUAGCCUGUGACAGCCACAUCUCCAGCAUCACAACGCAGGGUCACUGCCCCAUGGUUCU	0.104 ratio
AGGGGGAGGCCUCGGACUUCUCGCUGGCCUGGGAUUCCUCUGUGGCAGCAGCAGGAGGCCUGGAAGGAGAGCCAGAGUGUGAUCGGAAAACCAGCCGUGCGCUGGAAGACAGGAACAGCG	0.269 ratio
AUAGCCCUUCCAAUGAAAGAGCAGCUUUCAACUACAUACUUUACAUCUGGAGAGACCUUUGGUCAGGAAAAACCUGCAUCUCAGUUACCAUCUGGCAGUCCUUCUGUUUCCUCUCUUCCA	0.298 ratio

Set 5
Target: CCND2, cyclin fold, Cln2 fusion (human)
Technique: yeast growth competition, sequencing
Sample: yeast
Setting: weak parent motif
Reference: not given
Direction: higher = stronger binding
Starting sequence: ORC1 docking peptide (human); PRARKRLELGNLG; partner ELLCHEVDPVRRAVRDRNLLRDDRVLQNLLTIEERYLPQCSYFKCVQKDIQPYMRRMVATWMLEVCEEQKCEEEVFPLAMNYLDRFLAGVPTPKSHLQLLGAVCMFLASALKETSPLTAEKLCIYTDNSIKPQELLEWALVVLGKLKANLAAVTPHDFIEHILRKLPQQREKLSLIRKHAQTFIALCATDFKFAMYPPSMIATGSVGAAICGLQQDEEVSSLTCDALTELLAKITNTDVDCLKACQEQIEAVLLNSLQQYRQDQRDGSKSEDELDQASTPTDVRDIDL
Change	normalised enrichment score
PRARKRKELGNLG [L7K]	0.701
PRARKRLELFNLG [G10F]	-0.134
PRALKRLELGNLG [R4L]	0.0349
PRNRKRLELGNLG [A3N]	0.518
PRARKRLELSNLG [G10S]	0.186
CRARKRLELGNLG [P1C]	0.652
PRAVKRLELGNLG [R4V]	0.129
PAARKRLELGNLG [R2A]	0.161
PRARKRLELINLG [G10I]	0.0234
PRARKRLELGMLG [N11M]	0.453
PRARKRLERGNLG [L9R]	0.325
PGARKRLELGNLG [R2G]	0.311
PRAPKRLELGNLG [R4P]	0.0836
PRARKRLELGYLG [N11Y]	0.69

Single results of other studies
Substance	target	assay	system	setting	how to read	endpoint	value
PhoQ, residues 284 288 289 292 302 303 TTSMTC	PhoP, residues 12 14 15 18 19 LQHIR (Escherichia coli, UniProt P23836)	Sort-seq, refers to: YFP reporter	E. coli	PhoQ-PhoP variant library, added: 10 µM Mg2+	reference: high Mg2+ state, higher = stronger signaling	fold induction	14

A few entries again (set 3):
Sequence	E-score
TACAGATA	-0.0816
AGTAACGA	-0.0878
AATCGGTG	-0.031
ATAAAGTG	-0.162
ATATTAGA	-0.0296
AGGAATCA	0.0113
GCGTTACA	0.121
CGACCCCA	-0.108
CCAACCAG	-0.133
